Results from different studies.
Every numbered part comes from another study and shows a few of its results, in no order.
Sequence of UniProt P09668 (whole entry, looked up): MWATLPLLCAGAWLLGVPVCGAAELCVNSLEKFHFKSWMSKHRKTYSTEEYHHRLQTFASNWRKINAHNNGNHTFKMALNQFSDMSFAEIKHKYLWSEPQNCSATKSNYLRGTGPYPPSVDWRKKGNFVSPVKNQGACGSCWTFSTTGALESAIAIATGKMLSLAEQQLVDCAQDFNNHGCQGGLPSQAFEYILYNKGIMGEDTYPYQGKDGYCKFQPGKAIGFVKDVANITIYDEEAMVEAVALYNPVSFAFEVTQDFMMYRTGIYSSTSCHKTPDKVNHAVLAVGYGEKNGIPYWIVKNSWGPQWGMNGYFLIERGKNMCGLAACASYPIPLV
Sequence of UniProt P53634 (whole entry, looked up): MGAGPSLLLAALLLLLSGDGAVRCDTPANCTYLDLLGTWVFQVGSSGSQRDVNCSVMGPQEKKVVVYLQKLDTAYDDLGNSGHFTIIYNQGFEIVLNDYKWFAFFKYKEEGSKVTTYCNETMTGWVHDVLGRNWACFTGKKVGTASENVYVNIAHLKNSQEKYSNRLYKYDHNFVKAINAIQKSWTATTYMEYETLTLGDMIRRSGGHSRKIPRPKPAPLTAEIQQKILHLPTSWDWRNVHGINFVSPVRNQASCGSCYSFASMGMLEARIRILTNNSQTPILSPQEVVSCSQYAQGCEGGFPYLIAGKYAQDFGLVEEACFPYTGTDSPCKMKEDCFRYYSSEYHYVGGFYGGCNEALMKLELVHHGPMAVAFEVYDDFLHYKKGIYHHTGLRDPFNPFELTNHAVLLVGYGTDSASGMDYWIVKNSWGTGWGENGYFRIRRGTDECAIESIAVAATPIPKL
Sequence of UniProt P11229 (whole entry, looked up): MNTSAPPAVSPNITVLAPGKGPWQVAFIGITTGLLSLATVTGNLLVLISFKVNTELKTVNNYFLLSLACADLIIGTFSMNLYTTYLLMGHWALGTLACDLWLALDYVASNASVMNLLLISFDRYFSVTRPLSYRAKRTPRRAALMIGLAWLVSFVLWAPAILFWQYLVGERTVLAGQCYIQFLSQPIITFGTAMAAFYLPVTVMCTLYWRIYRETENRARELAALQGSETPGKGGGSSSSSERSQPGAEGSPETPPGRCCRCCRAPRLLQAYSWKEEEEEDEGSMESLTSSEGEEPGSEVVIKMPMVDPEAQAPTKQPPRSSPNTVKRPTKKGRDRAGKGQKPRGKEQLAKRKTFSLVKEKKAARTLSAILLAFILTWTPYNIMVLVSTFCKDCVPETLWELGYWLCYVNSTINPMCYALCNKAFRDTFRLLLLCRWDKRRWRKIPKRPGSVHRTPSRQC
Sequence of UniProt P41145 (whole entry, looked up): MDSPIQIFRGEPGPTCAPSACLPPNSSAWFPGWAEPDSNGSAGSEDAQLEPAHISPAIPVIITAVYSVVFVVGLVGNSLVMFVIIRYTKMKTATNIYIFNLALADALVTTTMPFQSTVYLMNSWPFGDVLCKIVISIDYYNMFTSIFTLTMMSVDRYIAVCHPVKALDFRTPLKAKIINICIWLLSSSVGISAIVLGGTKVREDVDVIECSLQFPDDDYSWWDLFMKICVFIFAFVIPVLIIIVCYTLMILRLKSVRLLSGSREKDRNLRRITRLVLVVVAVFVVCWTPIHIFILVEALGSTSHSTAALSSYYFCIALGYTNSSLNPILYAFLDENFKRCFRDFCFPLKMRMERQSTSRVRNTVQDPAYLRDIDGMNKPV
Sequence of UniProt P20309 (whole entry, looked up): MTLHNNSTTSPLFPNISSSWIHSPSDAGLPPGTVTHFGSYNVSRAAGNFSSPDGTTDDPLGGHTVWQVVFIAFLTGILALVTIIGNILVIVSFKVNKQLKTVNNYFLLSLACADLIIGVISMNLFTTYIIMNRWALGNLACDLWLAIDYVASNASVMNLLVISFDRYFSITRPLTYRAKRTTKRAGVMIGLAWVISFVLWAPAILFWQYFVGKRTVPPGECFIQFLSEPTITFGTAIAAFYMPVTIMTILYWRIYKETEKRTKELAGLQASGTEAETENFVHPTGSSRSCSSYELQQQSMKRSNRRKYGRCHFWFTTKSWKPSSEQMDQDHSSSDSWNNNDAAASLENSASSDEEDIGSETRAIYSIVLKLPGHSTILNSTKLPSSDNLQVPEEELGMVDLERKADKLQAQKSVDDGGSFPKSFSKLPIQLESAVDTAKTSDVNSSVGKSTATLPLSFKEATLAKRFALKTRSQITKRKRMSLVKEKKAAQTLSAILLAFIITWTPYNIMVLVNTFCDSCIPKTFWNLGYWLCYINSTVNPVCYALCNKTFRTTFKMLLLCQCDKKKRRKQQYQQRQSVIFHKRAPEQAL
Sequence of UniProt P28223 (whole entry, looked up): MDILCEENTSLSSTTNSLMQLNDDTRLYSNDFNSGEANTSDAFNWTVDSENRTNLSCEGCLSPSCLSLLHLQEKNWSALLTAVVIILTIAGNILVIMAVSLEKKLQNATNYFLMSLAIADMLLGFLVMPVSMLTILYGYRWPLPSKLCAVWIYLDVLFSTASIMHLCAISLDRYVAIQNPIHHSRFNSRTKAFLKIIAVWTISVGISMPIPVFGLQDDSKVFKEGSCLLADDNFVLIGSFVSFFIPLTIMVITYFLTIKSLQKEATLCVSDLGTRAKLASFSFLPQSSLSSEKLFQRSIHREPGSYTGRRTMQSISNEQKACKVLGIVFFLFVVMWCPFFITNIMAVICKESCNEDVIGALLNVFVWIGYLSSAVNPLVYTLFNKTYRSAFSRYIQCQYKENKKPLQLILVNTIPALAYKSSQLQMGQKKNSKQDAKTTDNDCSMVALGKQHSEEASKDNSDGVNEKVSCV
Sequence of UniProt P07384 (whole entry, looked up): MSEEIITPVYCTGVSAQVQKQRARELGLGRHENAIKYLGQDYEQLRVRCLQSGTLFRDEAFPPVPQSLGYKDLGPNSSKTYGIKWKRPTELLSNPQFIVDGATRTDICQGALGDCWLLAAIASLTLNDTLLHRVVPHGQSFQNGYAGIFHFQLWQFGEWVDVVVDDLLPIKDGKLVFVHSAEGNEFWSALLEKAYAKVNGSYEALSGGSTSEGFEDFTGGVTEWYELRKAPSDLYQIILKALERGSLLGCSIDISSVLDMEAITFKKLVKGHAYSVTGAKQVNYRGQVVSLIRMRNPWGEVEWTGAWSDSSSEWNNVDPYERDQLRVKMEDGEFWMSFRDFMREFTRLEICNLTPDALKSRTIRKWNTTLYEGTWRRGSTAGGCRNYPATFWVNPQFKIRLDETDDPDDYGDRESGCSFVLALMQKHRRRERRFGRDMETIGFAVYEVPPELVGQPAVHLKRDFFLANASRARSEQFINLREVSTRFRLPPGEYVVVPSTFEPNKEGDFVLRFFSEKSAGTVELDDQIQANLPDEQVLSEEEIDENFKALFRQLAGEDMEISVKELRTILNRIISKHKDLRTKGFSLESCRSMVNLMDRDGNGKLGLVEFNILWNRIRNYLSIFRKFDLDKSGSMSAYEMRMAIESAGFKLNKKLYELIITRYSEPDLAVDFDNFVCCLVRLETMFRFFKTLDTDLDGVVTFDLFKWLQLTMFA
Sequence of UniProt P35372 (whole entry, looked up): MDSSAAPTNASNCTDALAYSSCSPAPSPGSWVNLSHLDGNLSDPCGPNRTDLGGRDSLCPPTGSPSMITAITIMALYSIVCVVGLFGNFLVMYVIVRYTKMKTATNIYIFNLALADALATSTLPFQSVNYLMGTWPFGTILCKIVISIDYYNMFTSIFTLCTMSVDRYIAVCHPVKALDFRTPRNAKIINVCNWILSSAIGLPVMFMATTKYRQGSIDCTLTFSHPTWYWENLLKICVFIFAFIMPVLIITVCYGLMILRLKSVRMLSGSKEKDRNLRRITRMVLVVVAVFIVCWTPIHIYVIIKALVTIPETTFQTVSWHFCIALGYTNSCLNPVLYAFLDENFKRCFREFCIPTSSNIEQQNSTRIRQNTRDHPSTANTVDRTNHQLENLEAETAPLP
Sequence of UniProt P00784 (whole entry, looked up): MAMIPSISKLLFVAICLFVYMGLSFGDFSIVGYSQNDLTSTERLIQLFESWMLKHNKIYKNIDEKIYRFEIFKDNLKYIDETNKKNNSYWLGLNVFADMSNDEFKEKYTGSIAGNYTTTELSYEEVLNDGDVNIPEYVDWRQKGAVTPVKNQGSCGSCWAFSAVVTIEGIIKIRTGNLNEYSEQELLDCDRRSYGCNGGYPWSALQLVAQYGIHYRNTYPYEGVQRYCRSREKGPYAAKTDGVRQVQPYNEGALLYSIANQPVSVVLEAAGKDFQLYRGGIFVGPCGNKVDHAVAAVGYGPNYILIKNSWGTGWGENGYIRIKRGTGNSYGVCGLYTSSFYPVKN
Sequence of UniProt P41143 (whole entry, looked up): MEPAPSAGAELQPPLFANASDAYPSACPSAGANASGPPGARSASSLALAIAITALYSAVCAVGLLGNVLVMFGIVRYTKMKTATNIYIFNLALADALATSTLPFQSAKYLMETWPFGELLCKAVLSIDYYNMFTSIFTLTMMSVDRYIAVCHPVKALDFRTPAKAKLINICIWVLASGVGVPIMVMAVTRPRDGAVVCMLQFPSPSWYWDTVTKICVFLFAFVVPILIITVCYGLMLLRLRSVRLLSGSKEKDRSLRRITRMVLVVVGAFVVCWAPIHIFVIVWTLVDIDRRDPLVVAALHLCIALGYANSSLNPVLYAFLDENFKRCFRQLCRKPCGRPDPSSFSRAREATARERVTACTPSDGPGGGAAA
Sequence of UniProt P07711 (whole entry, looked up): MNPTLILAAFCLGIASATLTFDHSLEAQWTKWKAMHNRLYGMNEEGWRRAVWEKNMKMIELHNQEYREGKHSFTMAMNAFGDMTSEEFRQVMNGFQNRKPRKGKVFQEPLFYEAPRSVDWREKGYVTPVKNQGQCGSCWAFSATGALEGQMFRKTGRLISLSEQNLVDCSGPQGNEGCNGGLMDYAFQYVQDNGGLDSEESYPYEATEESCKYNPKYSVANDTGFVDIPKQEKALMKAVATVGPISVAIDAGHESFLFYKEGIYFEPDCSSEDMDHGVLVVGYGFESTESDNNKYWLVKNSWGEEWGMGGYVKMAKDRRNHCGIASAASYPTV

Set 1
Structure (SMILES): CC(C)C[C@H](NC(=O)[C@H]1O[C@@H]1C(=O)O)C(=O)NCCCCN=C(N)N
Quantity: IC50
Procathepsin L (CTSL, Homo sapiens, UniProt P07711): 12.6 nM
Cathepsin L2 (CTSV, Homo sapiens, UniProt O60911): 9.17 nM
Papain (Carica papaya, UniProt P00784): 0.434 nM
Pro-cathepsin H (Homo sapiens, UniProt P09668): 76.3 nM
Dipeptidyl peptidase 1 (CTSC, Homo sapiens, UniProt P53634): 563 nM
Cathepsin B (CTSB, Homo sapiens, UniProt P07858): 9.07 nM
Calpain-1 catalytic subunit (CAPN1, Homo sapiens, UniProt P07384): 16.4 nM
Cathepsin S (CTSS, Homo sapiens, UniProt P25774): 3.25 nM

Set 2
SMILES: CC(C)(C)OC(=O)N1CCCC1CNC1CCC(c2cc(F)ccc2F)(S(=O)(=O)c2ccc(Cl)cc2)CC1 (centres unmarked)
Effect on: cell-free assay
Tested at: 10 µM
Quantity: inhibition
5-hydroxytryptamine receptor 2A (HTR2A, Homo sapiens, UniProt P28223): 92.2%
Kappa-type opioid receptor (OPRK1, Homo sapiens, UniProt P41145): 69.8%
Mu-type opioid receptor (OPRM1, Homo sapiens, UniProt P35372): 49.1%
Muscarinic acetylcholine receptor M3 (CHRM3, Homo sapiens, UniProt P20309): -16.8%
D(1B) dopamine receptor (DRD5, Homo sapiens, UniProt P21918): 13.1%
Delta-type opioid receptor (OPRD1, Homo sapiens, UniProt P41143): 21.4%
Muscarinic acetylcholine receptor M1 (CHRM1, Homo sapiens, UniProt P11229): 8.44%

Set 3
Cell line: HEK-293T
Organism: VSV pseudotyped with VSV-G
Tested at: 10 µM
Time: 16 h
Quantity: pseudovirus infection
Cn1c(=O)c2c(ncn2C)n(C)c1=O: 114%
CN(C)CCCN1c2ccccc2CCc2ccc(Cl)cc21: 105%
CN1[C@@H]2CC[C@H]1C[C@@H](OC(=O)C(CO)c1ccccc1)C2 (some centres unmarked): 106%
O=C(O)COCCN1CCN([C@H](c2ccccc2)c2ccc(Cl)cc2)CC1: 87.7%
Nc1nc(=O)n([C@@H]2CS[C@H](CO)O2)cc1F: 132%
CC(C)CN(C[C@@H](O)[C@H](Cc1ccccc1)NC(=O)O[C@H]1CO[C@H]2OCC[C@H]21)S(=O)(=O)c1ccc(N)cc1: 108%
CCCCOCCOCCOCc1cc2c(cc1CCC)OCO2: 119%
CC(C)NCC(O)COc1ccc(CC(N)=O)cc1 (centres unmarked): 118%
CN(C/C=C/c1ccccc1)Cc1cccc2ccccc12: 103%
Nc1ccc(S(N)(=O)=O)cc1: 140%
C[N+]1(C)CCC(OC(=O)C(O)(c2ccccc2)C2CCCC2)C1 (centres unmarked): 102%
CN(C)CCC=C1c2ccccc2C=Cc2ccccc21: 83.3%
CNCC[C@H](Oc1cccc2ccccc12)c1cccs1: 109%
CCOc1ccc(Cc2cc([C@@H]3O[C@H](CO)[C@@H](O)[C@H](O)[C@H]3O)ccc2Cl)cc1: 104%
C#CCN[C@@H]1CCc2ccccc21: 131%
Cc1ncc(C[n+]2csc(CCO)c2C)c(N)n1: 88.5%
Cc1cnc(C(=O)NCCc2ccc(S(=O)(=O)NC(=O)NC3CCCCC3)cc2)cn1: 103%

Other studies, line by line
C[C@@]12N[C@@H](Cc3ccccc31)c1ccccc12
nuclear SOX9 intensity (mouse MPNST tumor cells; high-content immunofluorescence imaging, refers to: nuclear SOX9; 10 µM, 12 h, mean of 2 replicates; relative to: DMSO control, higher = more nuclear SOX9): 102 % of DMSO

COc1ccc(-c2c(Nc3ccccn3)[nH]c3c(C4=CCCCC4)c(-c4ccccc4)nn3c2=O)cc1
AST increased incidence (patients with advanced malignancies; oral, dose not given, treatment-emergent adverse events): 15%

NC(=O)C[S+]([O-])C(c1ccccc1)c1ccccc1 (centres unmarked)
nuclear SOX9 intensity (mouse MPNST tumor cells; high-content immunofluorescence imaging, refers to: nuclear SOX9; 10 µM, 12 h, mean of 2 replicates; relative to: DMSO control, higher = more nuclear SOX9): 109 % of DMSO
